Results from different studies.
Numbered parts are unrelated; each lists some results of a single study.

Series 1
Target: RNA binding protein fox-1 homolog 2, RRM domain, GST-SBP tag (RBFOX2, Homo sapiens, UniProt O43251-10, residues 100-194)
Method: RNA Bind-n-Seq
Molecule type: RNA
Sample: in vitro
Concentration: 365 nM
Notes: natural RNA segment, single round, ends assumed
Relative to: no-protein control
Direction: higher = stronger binding
Endpoint: RBNS enrichment (R)
Shared flanks, not repeated: GGGAGUUCUACAGUCCGACGAUC … UGGAAUUCUCGGGUGCCAA
Residues (chain): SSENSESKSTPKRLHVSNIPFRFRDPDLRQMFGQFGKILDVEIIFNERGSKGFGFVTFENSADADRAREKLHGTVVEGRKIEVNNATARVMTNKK
AAUUUAUUGAAUUUUAUUAUUGAAAGUUGAAACUUAACAUGUAUGAACAAAAACCAAUAAAAGAAUAUACUCUUUUCAUUGACUAUAGUAUUAUGUGAAUGCUACAUUUG: 0.435
AGGGGGCAUUUUGAUGUGGUCCUCCUUGCUUCUGGAGGGACUUGGUUCCCUUUAGAAAACCUGCCCUGGGAAAAGACUUCUUGGUUUUGAGGAAGAUCCUUGGUUAGCGA: 0.788
CGUCAGAAGGAAGCCAGUGUGACCACUAACUAAGAUGAAGACACAUGGAAAUGAUGGCACUGGAGGUGGAGGACCUUGCACGCAUACUCUUUGUGACCACAGGGUUGCAG: 1.24
ACUCUCAGGUAUAGAAGCCCAGGAUGUCUAAUACCCUGUCCCAGUGCCCGAGAGCUGCCUGGUGUCAGGUAGAGAGGACACUGUACCUGGGUGAAUGAUCAGACCCUGGU: 0.621
GCCUCAUUAGGCCCAGACUGCUGCUGCUGGUACCAGUCUCCUGAGACACUGCCUCCCUGGAGCCCAUGCAUGCCCAGCUGUUCUUACUGCUUAGUAGCCUUGAAGCAGCA: 10.6
CUGUGGGUACUGGUCUUGGGUUCUAGUCAUAAGGGGUUCCUUAUAAGGAGCAGGCGGAGGGGAGUACACUUUCAUGUGAUUUAAUUUUGAUCCUGCCCUCUCCAGCUGCU: 0.282
GCUUCCUGCCCCUUGAGGUGGGCCAGGCUGGCUCCUGGCUAUGCAGGGAUCUCUGGUCCCCAGGAGACCUUGGGGGCCAGGCAGGUAAGGAUCAGGGGUGAUAGGGGAGA: 0.404
GGAGUUGGCAAUACCUAGUUCUGCUUCUGAAACUGGAGUAUCAUUCUUUACAUAUUUAUAUGUAUGUUUUAAGUAGUCCUCCUGUAUCUAUUGUAUAUUUUUUUCUUAAU: 0.971
UCUUAACAAAAUGAAAGUUCUCCAAAGACAAAACAGAACAAUUAUUAUAACAAAAUAAUUAUGGUUGAAAUGUCUGUGGUUCCUUGGAAAUGCUGCGCUCUUUGUGUUUU: 0.616
UGGGUUUCUAGGGAAUAUGGCUCAGUAGGGCCUGCCCCUUCAAGGGCAGCAAGAACGAAGCAGGAUGUUGUCACUCCCGUCUGAAUAAAGCUCCAUGAGCUGGGUUGGAA: 0.602
GAACAAUGGAGAGAAAGUAGGUGAGUACUUUGAGUGUUGGGCUUUGGGCCAAAAAUGCAGACUCAGGUUUUAGGUGUCUUACCACAUGGCUGCCCUGUGCAGGCUGUCAU: 1.06
UCAUAAACCCUGCAAGUCUUCAUGGUCUUCUCACCAGCCUUUCCAGCAGGUUCUAGUGCCUUGACCUGGGGUAGGACCGAGUGAAGGAGGAAGAGGGUAAAAGGGCACAG: 0.765

Series 2
Target: Hepatocyte nuclear factor 3-alpha (Foxa1, Mus musculus, UniProt P35582, residues 1-468, full length assumed)
Sequence of UniProt P35582 (whole entry, looked up): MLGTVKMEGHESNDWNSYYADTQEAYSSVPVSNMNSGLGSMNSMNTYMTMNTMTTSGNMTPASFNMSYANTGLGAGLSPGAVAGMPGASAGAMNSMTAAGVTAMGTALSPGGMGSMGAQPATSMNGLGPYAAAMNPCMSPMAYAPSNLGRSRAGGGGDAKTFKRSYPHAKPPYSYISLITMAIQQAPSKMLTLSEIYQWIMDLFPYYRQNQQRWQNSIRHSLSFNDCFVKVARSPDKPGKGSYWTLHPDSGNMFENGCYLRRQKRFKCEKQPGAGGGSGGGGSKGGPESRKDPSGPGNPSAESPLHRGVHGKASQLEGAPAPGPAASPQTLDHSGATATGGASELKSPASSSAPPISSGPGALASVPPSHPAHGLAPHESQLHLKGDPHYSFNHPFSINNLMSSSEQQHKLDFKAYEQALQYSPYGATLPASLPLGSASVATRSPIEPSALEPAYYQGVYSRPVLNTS
Method: EMSA with sequencing
Molecule type: double-stranded DNA, one strand shown
Sample: in vitro
Concentration: 10 and 20 nM
Notes: whole designed probe, mean of two concentrations, ends assumed
Relative to: negative control set to 0
Direction: higher = stronger binding
Endpoint: normalised bound fraction
Shared flanks, not repeated: GTGAGCGGTGCCCATTGATGGGGAAC … TTTCACTGGGATCGTGGGGAC
CAAGTTTGTGGTCCAGGAGCAACAGGTTATGCCATACAGCCTAGGTGTGTAGTAGGCTACACACCGTCTATGTTTGTGTTGTACACTCTACAATGTTTGCACAATGATCCATGACTCATGAAATCTTCTCAGAACATACCCCTGTTGTTAAGCGATACATGACTGTACTTTTTTTAAAAAGTCCAAGGATATA: 0.442 ratio
ATCCACGAACCTGGCCCTGTCTGGTAACCACAGTGAACCATCGCAAGATACAGCACTATGTGCCCAGTTGGGCTGGTAATGTCACACAAATGTGTCAACACTGGCACATCCTCAGGGACATAATGACTCACTTGTTTTTGGAGAGGGACTAGACCTTCATCCTTGAGGTGAAGAAGATTTTCTCTCCAGGGTG: 0.0463 ratio
CCAGGGACAATGTGCAGTTGTTGGTCCTGGGTCTTTGACAGACTCCAGGTCAAAGGCAAGACACCGTGAGAAGGGAAAGGATCAAGTCTGTGAGCAAACACCATCAGCCTTGCAATTTGATGGTGGCCTCAAGGAGACATTGGGCGTGTGTTTAAACAAGCAAGGAAGGCAGCTGTACAAGTGCCCTAATCTG: 0.213 ratio
AACAAACAAATAAAACAACTAGTATGGAAGCTAGAATAATGTGATGCACCATTACACCAAATATTCAGTCTTAACATGGTTTTTAATATTATGTAAACATGGAAGGTATTGCCATTGTTCATATGATACAGAATCAATGGTACTCACAATCATCTGAATATGTTGAAAAATGGCATCTTCAAATAAAAATTAT: 0.491 ratio
CGAGAAGCTCCTTGAAATACAAAGGGAAACAAGGCAGTGCCTCTCTCCTTAGTGGGCAAGGCAGGGAGGGGGCAGCAATGGTAGCAGCTCACCATGTTTACTTTGTTTTTTAATTTCAAATTCACACACAATGAGGTATCTGCGTTCCATTACAATATGACTGCCAGGGCAAGCCTAGTTTATTACTTTCTTA: 0.383 ratio
AGGTAGATCAAGTACTCATATCTCTATGTACAGATGACAATAAGTGATTTCTCAGGAGCAAACAAGGGGAGTTATTGTGATTGTCTGATGGTTTGTTTACTCTGAGACTTACTCTGTTTCAACTTTCCACCTTTTCTTTATTTTCCGTCCCAGACAGAAAGATTCTTCTTCTAGATAGACTGTTACTTCTACT: 0.416 ratio
CTCATTCCTTGCTTCCGCCAATAATCTGACTAGTAAAGAAGTCACTGCATGCCACAAATTGTCAGTGCTGACTTCCTCAACAAGGAAGTATAAGTAAATAAATATTAATATATATGGAGTGACTCAGCAAATTCCATCTTGAGAATACCAACTCCTGATGCCAACTGATTGTCAGTCATGGCTACAACAGGAG: 0.407 ratio
GAAATGAGTCAGCTTAATCAACTGAAATTCGCATTTGCATAGTTCTCGAGGCTAGAAGTTCCAGACCAGGACACAGTGAGGAGGCAGCAGTCTGCAAACAAGGAAGAGAGCCCTCACCAGGAAATCAGTCAGCTGTTCTCATTTAATGTTCTCACTTTAGAAGATCATGCAAGGGACAAAATCTCCAGAATCT: 0.0753 ratio

Series 3
Target: Sal-like protein 4, full length isoform A (SALL4, Homo sapiens, UniProt Q9UJQ4, residues 1-1053)
Sequence of UniProt Q9UJQ4 (whole entry, looked up): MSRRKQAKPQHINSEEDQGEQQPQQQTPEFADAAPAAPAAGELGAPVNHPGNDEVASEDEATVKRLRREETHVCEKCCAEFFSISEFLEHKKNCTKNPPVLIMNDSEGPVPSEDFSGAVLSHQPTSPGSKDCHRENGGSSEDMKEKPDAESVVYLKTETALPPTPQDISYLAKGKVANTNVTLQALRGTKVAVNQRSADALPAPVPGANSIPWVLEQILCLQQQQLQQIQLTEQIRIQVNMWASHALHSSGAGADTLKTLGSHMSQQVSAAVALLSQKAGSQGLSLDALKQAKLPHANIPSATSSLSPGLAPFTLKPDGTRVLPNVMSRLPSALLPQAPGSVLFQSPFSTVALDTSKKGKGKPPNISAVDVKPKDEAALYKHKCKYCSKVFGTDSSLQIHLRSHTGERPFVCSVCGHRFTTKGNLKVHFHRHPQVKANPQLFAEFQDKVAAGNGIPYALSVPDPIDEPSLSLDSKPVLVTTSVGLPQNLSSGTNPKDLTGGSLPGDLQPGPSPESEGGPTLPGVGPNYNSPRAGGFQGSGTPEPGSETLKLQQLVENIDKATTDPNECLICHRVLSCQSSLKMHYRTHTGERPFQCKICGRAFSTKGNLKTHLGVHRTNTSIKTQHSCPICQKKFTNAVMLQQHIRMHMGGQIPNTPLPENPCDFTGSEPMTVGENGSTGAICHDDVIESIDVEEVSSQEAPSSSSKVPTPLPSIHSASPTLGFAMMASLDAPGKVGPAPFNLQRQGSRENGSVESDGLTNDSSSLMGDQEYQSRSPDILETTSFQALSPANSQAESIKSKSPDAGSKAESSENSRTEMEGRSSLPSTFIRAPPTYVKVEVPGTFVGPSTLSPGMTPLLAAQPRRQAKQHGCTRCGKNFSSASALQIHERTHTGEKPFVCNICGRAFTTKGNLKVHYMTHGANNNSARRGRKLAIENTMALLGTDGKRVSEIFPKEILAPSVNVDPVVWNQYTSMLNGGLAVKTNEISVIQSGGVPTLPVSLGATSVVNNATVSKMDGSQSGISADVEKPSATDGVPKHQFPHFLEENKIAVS
Method: universal PBM
Molecule type: double-stranded DNA, one strand shown
Sample: in vitro
Concentration: 600 nM
Notes: 8-mer, flanks averaged, mean of replicates
Direction: higher = stronger binding
Endpoint: E-score
CCTTTCGC: -0.0907
CTTATCTA: 0.335
CTGGATAA: 0.0341
GGCGGCAC: -0.257
CTGCCCTA: -0.173
GCCATGCA: -0.0265
GAAAATCA: 0.274
CTAGCTAA: -0.136
ACATACGG: -0.013
CATCCTGA: -0.00256
CCCAGAAA: -0.052
GCTGTCCC: -0.206
GACTTAAC: -0.128
CATTCCGA: 0.0917
ATGCACAA: 0.165
ATTCACGA: 0.245
CTACAGTA: 0.0988
GAAGTATA: 0.255

Series 4
Target: RING finger protein unkempt homolog, zinc fingers 1-6, GST-SBP tag (UNK, Homo sapiens, UniProt Q9C0B0, residues 30-357)
Method: RNA Bind-n-Seq
Molecule type: RNA
Sample: in vitro
Concentration: not given
Notes: RNA with constant flanks, ends assumed
Relative to: input RNA pool
Direction: higher = stronger binding
Endpoint: bound/input enrichment
Shared flanks, not repeated: GGGAGUUCUACAGUCCGACGAUC … CAACAGAGGAUUGAGCAUCA
Residues (chain): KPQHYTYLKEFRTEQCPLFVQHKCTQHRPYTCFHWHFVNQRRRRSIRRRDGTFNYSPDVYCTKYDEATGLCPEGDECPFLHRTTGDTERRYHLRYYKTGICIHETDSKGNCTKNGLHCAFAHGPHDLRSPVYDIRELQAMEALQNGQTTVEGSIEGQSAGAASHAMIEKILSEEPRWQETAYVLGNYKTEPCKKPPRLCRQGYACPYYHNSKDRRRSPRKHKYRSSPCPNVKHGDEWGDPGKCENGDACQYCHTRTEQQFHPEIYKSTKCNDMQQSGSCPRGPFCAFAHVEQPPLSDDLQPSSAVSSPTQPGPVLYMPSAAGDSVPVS
UGUCGGGUGGCUUAUCUGUGGGUGCCAUGGGUGAUGAUGUUCAUUUUAAGCUUUUGCCUGCCGUACAAGCACAUAAUGCUACUGAACGUUUUUCCACUUGGAGACUGUGAGCUGGUUGCU: 0.181 ratio
GGAUUGUAGAUUUUUGCUUUUUCUUUUUGUUUUUAAAACUUAUUCCAAUUGCUAAAUUGGCCGUUUUUCAGUCUUUAUAAAUACAGGAUUAAAAAUAUAUAUACAGUUAUAUGAAAUGUU: 0.877 ratio
AAUUUUCCUUUCAUAUAAAAACUGAUCUCCCCUCCUCCCAUAAAUAUUUUUACUUCAAGGACCCGGACCAGUUUGUUUUGGGCCCUUAUGUGAAAAUUUGUCUCGUUUAAGAGGCAUCUU: 0.233 ratio
CUGAAAUCUUUGGAGACUAUGCCUCCAGAGACGUCAAAGACCACGCUGGUAGAGCUUCCCACCGCAAAAGUGGUUGAGCCAUCAGAAACCCUCACGAUAGUGUCAGAGACACCUACUGAG: 0.0723 ratio
UCAAUUCUUCAAGAAAAAUUGCAAGAAAUCAGAAAGCAUUAUCUGUCUUUAAAAUCUGAAGCCGCUUCCAUUGAUAGGAGGAGAAAACGUUUAAAGAAGAAAGAGAGAGAAAGUGCUGCU: 0.234 ratio
GGAUUUGGAGAUGCAGUGGAUAAUAGUAAUUGCUGGCAGCCUGUUAUCGACUACAUUGACCGUAAAUUUGAAGAUUACUUAAAUGCAGAAUCUCGAGUGAACAGACGUCAGAUGCCUGAU: 0.267 ratio
GAAACAGAAUUAAAACAUUUCCACUGGGUUUCGCCUGUAAGAAAAAGUGUACCUGAGCACACCGCUUUUUAAUAGCACUAACCAAUGCCUUUUUAGAUGUAUUUUUGAUGUAUAUAUCUA: 3.71 ratio
AAGUAGCAUAUGACUGGAAACUAUAUUCAGUGCACUUUCUCCAAAAGACUACCCAGAAAAACCGACUUAUUUUCAAAUACCAGUUAUCAAGAUAUAUUAAAUAGCUGUAUUGUUUAGAAU: 1.18 ratio
GACAACAAAAUUAUAGAAUGCAAAUUUGAGAACAAUAGCUGGGUCUUCAUGAGACAGAGGACCGACAAAAGUUUCCCAAAUGCCUACAACACAGCCAUGGCUGUGUGCAAUAGCAUCUCG: 1.13 ratio
AUAUGUCUUAUAUUUUCCUGUGACUCUGGAAACUAAACCAUUGUGUGUCUUGUCGUGUCCCCGUUGAGCUGGGGCCUAGCAGCUUCCUUCCAGUGGGUGUGGAGCAAACGUGUAUGUCGC: 0.227 ratio
GAAGAUGCGGCAUCCUAUGUUAGAAAGGUUAUACCAAAAGAUUACAAGACAAUGGCCGCUUCCGCCAAAGCCAUUGAAAAGAAUGUGCUGUUUUCACAUCUUGAUGAUAAUGAGAGAAGU: 0.495 ratio

Series 5
Target: ATP-dependent RNA helicase DDX3X, helicase core (DDX3X, Homo sapiens, UniProt O00571, residues 132-607)
Sequence of UniProt O00571 (132-607, looked up): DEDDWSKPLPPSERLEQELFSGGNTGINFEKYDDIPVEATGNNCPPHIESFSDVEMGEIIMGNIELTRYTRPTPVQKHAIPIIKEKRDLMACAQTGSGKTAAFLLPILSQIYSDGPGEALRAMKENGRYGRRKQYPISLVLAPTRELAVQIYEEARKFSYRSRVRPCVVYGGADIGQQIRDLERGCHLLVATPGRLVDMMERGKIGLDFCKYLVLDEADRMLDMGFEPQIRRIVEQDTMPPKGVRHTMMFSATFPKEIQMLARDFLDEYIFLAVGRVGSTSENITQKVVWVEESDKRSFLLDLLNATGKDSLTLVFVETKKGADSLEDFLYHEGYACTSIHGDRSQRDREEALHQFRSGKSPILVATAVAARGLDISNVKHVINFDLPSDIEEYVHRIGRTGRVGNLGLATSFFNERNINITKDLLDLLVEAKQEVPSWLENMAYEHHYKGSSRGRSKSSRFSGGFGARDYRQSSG
Method: RNA Bind-n-Seq
Molecule type: RNA
Sample: in vitro
Concentration: 90 pmol
Notes: 4-mer, random 30-nt RNA, single round
With: 3 µM DMDA-PatA, 2 mM ADP, 2 mM phosphate
Relative to: input library
Direction: higher = stronger binding
Endpoint: 4-mer enrichment
GACU: 0.775 fold
GUCA: 0.955 fold
UGCA: 0.92 fold
CGAU: 0.755 fold
GCUA: 0.794 fold
AGGA: 1.22 fold
AGGC: 1.08 fold
GCGU: 1.32 fold
CGUG: 1.13 fold
GAGU: 1.44 fold
GCUU: 0.772 fold
AAAC: 0.951 fold
GGCA: 0.999 fold
AUAC: 0.904 fold
UAGA: 0.995 fold
CGUC: 1.02 fold
CGCU: 0.806 fold

Excerpt of the above (series 5):
UGCA: 0.92 fold
CGAU: 0.755 fold
GCUA: 0.794 fold
AGGA: 1.22 fold
AGGC: 1.08 fold
